Experimental data of several laboratories.
Protocols differ between the studies behind these lines. Values joined by “and” are separate records of one study, mostly repeats; a detail may differ. ± marks the error that the study gave. In brackets after ≈: the same amount, converted by molar mass.

`Nc1ncc(-c2nc(N3CCOCC3)nc(N3CCOCC3)n2)c(C(F)F)n1` gave a thermodynamic solubility of 34.5 µM (≈ 13.6 µg/mL) (shake flask; buffer; 24 h, pH 1.2, 25 °C).
For `CN[C@@H](C)C(=O)N[C@H]1CN(S(=O)(=O)c2cccc(S(=O)(=O)N3CC[C@H]4CC[C@@H](C(=O)NC(c5ccccc5)c5ccccc5)N4C(=O)[C@@H](NC(=O)[C@H](C)NC)C3)c2)CC[C@H]2CC[C@@H](C(=O)NC(c3ccccc3)c3ccccc3)N2C1=O`, “treatment-related ALT elevation incidence” read 33.3% (patients with advanced solid tumours; 30 mg, phase I monotherapy).
`O=C(Nc1ccccc1)C1CCN(C(=O)Oc2cccnc2)CC1` — result for “adverse event Fatigue”: 42.9% (healthy women; oral, 20 mg, 7 days).
For `CN1CC[C@@H](c2c(O)cc(O)c3c(=O)cc(-c4ccc(C(F)(F)F)cc4Cl)oc23)[C@@H]1CO`, “patients with adverse event” read 0% (item: Sepsis; relapsed B-cell malignancies or AML; oral, 50 mg, grade 3-4, continuous dosing).
`Cc1ccc(F)c2cc(C(=O)N[C@@H]3CCC[C@H](N4CC[C@H](N(C)S(C)(=O)=O)C4)C3)[nH]c12` has a plasma concentration of 422 ng/mL (CD1 mouse, plasma; oral, 100 mg/kg, 10 h).
`C[C@]1(CO)Cc2ncn(-c3ccc(C#N)c(Cl)c3)c2C(=O)O1`: “drug-related Headache incidence” 0% (Japanese subjects; 80 mg single dose).
`C=CC(=O)N1CC[C@H](n2nc(C#Cc3cc(OC)cc(OC)c3)c3c(N)ncnc32)C1` — result for “adverse drug reaction incidence”: 100% (patients with advanced solid tumours; oral, dose not given, Hyperphosphatemia, any grade, QD, added: phosphate-binding therapy).
For `O=S(=O)(Nc1ccccc1)c1ccc(NC(=S)Nc2ccccc2)cc1`, “blood chemistry level” read 9.55 mg/dL (item: Ca; male mouse, blood; oral, 20 mg/kg daily, 14 days).
`C[C@H]1COCCN1c1nc(NCc2cccnc2C(F)(F)F)c2cccnc2n1` has a PCE share of 48.5% and 55.5% and 38% (male CD-1 mouse, femur bone marrow; oral, 1000 mg/kg twice, 48 h).
The drug concentration of `COc1ncccc1-c1cnn2ccc(N3CCN(C(=O)OC(C)C)CC3)nc12` is reported as 18 µM (mouse nerve ligation model, brain; oral, 30 mg/kg, 120 min after last dose, repeat dosing day 2).
The AUC(0-t) of `CCC[C@@](N)(CO)CCc1ccc(OCCCCCC(C)C)cc1` is reported as 20.9 µM·h (dog, male hounds, plasma; oral capsule, 20 mg/kg, geometric mean).
For `O=C1Nc2cc3[nH]nc(-c4ccncc4)c3cc2CN1Cc1ccccc1`, “patients with rash” read 100% (CTCAE v4.03; human, relapsed or refractory advanced solid tumours; intravenous, 1.8 mg/kg, pooled schedules).
`C=CC(=O)Nc1cc(Nc2nccc(Nc3cc(Cl)c(F)cc3C(C)(C)O)n2)c(OC)cc1N1CC[C@@H](N(C)C)C1` — result for “patients with rash”: 50% (human patients; oral, 50 mg, treatment-emergent adverse events).
For `COc1cc2c(Oc3ccc4[nH]c(C)cc4c3F)ccnc2cc1OCC1(N)CC1`, “grade 3 Hypothyroidism” read 0% (paediatric recurrent refractory sarcoma; 8 mg).
`CO[C@H]1C[C@@H]2CC[C@@H](C)[C@@](O)(O2)C(=O)C(=O)N2CCCC[C@H]2C(=O)O[C@H]([C@H](C)C[C@@H]2CC[C@@H](OC(=O)NCCOCCOCCOCCOCCOCCOCCOCCOCCC(=O)N3CCc4cc(Cn5nc(-c6ccc7oc(N)nc7c6)c6c(N)ncnc65)ccc4C3)[C@H](OC)C2)C[C@@H](O)[C@H](C)/C=C(\C)[C@@H](O)[C@@H](OC)C(=O)[C@H](C)C[C@H](C)/C=C/C=C/C=C/1C`: “dose-reducing adverse events” 0% (phase 1 dose escalation, item: gastric haemorrhage; advanced solid tumour patients; intravenous, 8 mg weekly, grade ≥3).
For `CC(C)[C@@H](CN1CC[C@@](C)(c2cccc(O)c2)[C@@H](C)C1)NC(=O)[C@@]1(C)Cc2ccc(O)cc2CN1`, the AUCtotal was 802 ng·h/mL (rat, plasma; intraperitoneal, 5 mg/kg).
`COc1cccc(Oc2ccccc2NC(=O)CNC(=O)c2cccc3ccccc23)c1` has a serum chloride of 110 mmol/L and 108 mmol/L (esterase-deficient SCID mice, male; oral, 15 mg/kg/day, 14 days, toxicity study).
`C=CCNc1c(O)cc2c(O)c1C[C@@H](C)C[C@H](OC)[C@H](O)[C@@H](C)/C=C(\C)[C@H](OC(N)=O)[C@@H](OC)/C=C\C=C(/C)C(=O)N2`: “patients with TEAE” 37% (item: Vomiting; unresectable or metastatic GIST/STS; intravenous, dose not given, all doses).
`CCN1CCN(Cc2ccc(Nc3ncc(F)c(-c4cc(F)c5nc6n(c5c4)[C@H](C)CCC6)n3)nc2)CC1`: “Hypokalemia incidence, grade ≥3” 4.2% (advanced solid tumour patients; dose not given, Phase Ia monotherapy).
With `CCN1[C@@H](C(=O)NC23CCC(C(=O)O)(CC2)CC3)[C@H](c2cccc(Cl)c2F)[C@]2(C(=O)Nc3cc(Cl)ccc32)C12CCCCC2` the nausea/vomiting incidence was 100% (patients with advanced solid tumours; oral, 200 mg).
`Cn1nccc1[C@]1(CNC(=O)c2ccc(F)c(F)c2-c2ccc(C(F)(F)F)cc2)NC(=O)NC1=O` gave a dose-normalised AUC of 3.1 kg·h/L (rat; intravenous, 0.3 mg/kg).
For `N=C(N)NCCC[C@@H](NC(=O)[C@@H](N)Cc1ccccc1)C(=O)N[C@@H](Cc1ccccc1)C(=O)N[C@@H](CCCCN)C(N)=O`, “median amount excreted in urine” read 1.2e+06 ng (LC-MS; human; 15 mg, 11.83 h).
`Cn1ncc(-c2nc(N[C@H]3CC[C@H](N)CC3)ncc2Cl)c1CC1CC1`: “adverse event incidence” 33% (item: anemia grade 3 or higher; human patients phase I; dose not given).
The concentration of `CN1CCN(S(=O)(=O)c2cc([N+](=O)[O-])ccc2N(CCOS(C)(=O)=O)CCOS(C)(=O)=O)CC1` is reported as 57 nM (NSG mice female, brain; intraperitoneal, 25 mg/kg, 0.5 h).
`O=C(c1ccc(F)c(F)c1Nc1ccc(I)cc1F)N1CC(O)([C@@H]2CCCCN2)C1`: “treatment-related AE causing withdrawal” 6% (human patients; oral, dose not given, dose escalation, tablet).
`C[C@@H]1NC(=O)[C@H](CCCCNC(=O)CO/N=C/C(=O)NCCCC[C@@H]2NC(=O)[C@@H](Cc3ccccc3)NC(=O)[C@H](CC(=O)O)NC(=O)CNC(=O)[C@H](CCCNC(=N)N)NC2=O)NC(=O)CNC(=O)[C@@H]2CCCN2C(=O)[C@H](CCCCNC(=O)CO/N=C/C(=O)NCCCC[C@@H]2NC(=O)[C@@H](Cc3ccccc3)NC(=O)[C@H](CC(=O)O)NC(=O)CNC(=O)[C@H](CCCNC(=N)N)NC2=O)NC(=O)[C@H](CCCCNC(=O)CN2CCCNCCNCCCNCC2)NC(=O)[C@H](CCCCNC(=O)CO/N=C/C(=O)NCCCC[C@@H]2NC(=O)[C@@H](Cc3ccccc3)NC(=O)[C@H](CC(=O)O)NC(=O)CNC(=O)[C@H](CCCNC(=N)N)NC2=O)NC(=O)CNC(=O)[C@@H]2CCCN2C(=O)[C@H](CCCCNC(=O)CO/N=C/C(=O)NCCCC[C@@H]2NC(=O)[C@@H](Cc3ccccc3)NC(=O)[C@H](CC(=O)O)NC(=O)CNC(=O)[C@H](CCCNC(=N)N)NC2=O)NC1=O` [copper-64 labelled] gave a tissue uptake of 15.9 ± 3.48 %ID/g (biodistribution after PET; mouse, U-87 MG tumour xenograft, kidney; intravenous, 24 h).
`N[C@@H]1c2ccccc2OC12CCN(c1cnc3c(N4CCCc5ncccc54)n[nH]c3n1)CC2`: “serious TEAE grade ≥3” 42.9% (advanced solid tumour patients; oral, 75 mg once daily).
Under “platelet distribution width”, `CC(C)C[C@H](NC(=O)[C@H](CCCCN)NC(=O)OCC1c2ccccc2-c2ccccc21)C(=O)N[C@H](C(=O)N[C@@H](Cc1ccccc1)C(=O)N[C@@H](Cc1ccccc1)C(=O)N[C@@H](CCCCN)C(=O)NCC(=O)N[C@@H](Cc1ccccc1)C(=O)N[C@@H](C)C(=O)N[C@@H](Cc1c[nH]c2ccccc12)C(=O)N[C@@H](CC(N)=O)C(=O)N[C@H](C(=O)N[C@H]1CSSC[C@@H](C(=O)N[C@@H](Cc2c[nH]cn2)C(=O)N[C@@H](CCCNC(=N)N)C(=O)N[C@@H](CCCNC(=N)N)C(=O)N[C@@H](C)C(=O)N[C@@H](CC(N)=O)C(N)=O)NC(=O)[C@H](C(C)C)NC(=O)[C@H](CCCNC(=N)N)NC(=O)[C@H](C(C)C)NC(=O)CNC(=O)[C@H](CC(N)=O)NC(=O)[C@H](CCCNC(=N)N)NC(=O)[C@H](Cc2ccc(O)cc2)NC(=O)[C@H](C(C)C)NC1=O)C(C)C)C(C)C` is recorded as 15.35 ± 0.06% (ICR mice, blood; intraperitoneal, 10 mg/kg, day 5).
Under “grade 3-4 TRAE incidence”, `COc1ccc(-c2c(-c3ccc(C#N)c(F)c3)nc(N3CCC(N)CC3)n(C)c2=O)cc1F` is recorded as 0% (item: maculo-papular rash; human patients; oral, dose not given, dose escalation).
For `CC(C)CC(=O)OC[C@H]1O[C@@](C#N)(c2ccc3c(N)ncnn23)[C@H](O)[C@@H]1O`, the remaining compound was 96.7 ± 1.11% (Dogs plasma; 5 µM, 15 min).
For `CCc1ccc(CC/C=C/c2ccc3c(c2)C(=O)CC3)cc1`, “LDH serum activity” read 386 U/L (Sprague-Dawley rat, male; oral, 30 mg/kg/day, 14 days).
`C[C@]1(O)C[C@@](N)(c2ccc(-c3nc4n(c3-c3ccccc3)COc3ccncc3-4)cc2)C1`: “patients with Anemia TEAE” 0% (human, advanced or metastatic solid tumours; 16 mg once daily, dose-response cohort).
`CC(=O)c1c(C)c2cnc(Nc3ccc(C4CCN(CCS(C)(=O)=O)CC4)cn3)nc2n(C2CCCC2)c1=O`: CNS function “no effect” (Sprague-Dawley rat; oral, 20, 80, 320 mg/kg, 3 and 24 h).
Under “subjects with abdominal discomfort”, `NCCCC[C@@H]1NC(=O)[C@@H](Cc2c[nH]c3ccccc23)NC(=O)[C@H](c2ccccc2)NC(=O)[C@@H]2C[C@@H](OC(=O)NCCN)CN2C(=O)[C@H](Cc2ccccc2)NC(=O)[C@H](Cc2ccc(OCc3ccccc3)cc2)NC1=O` is recorded as 9% (healthy human volunteers; 600 µg twice daily).
The tissue uptake of `CC[C@H](C)[C@H](NC(=O)[C@H](Cc1ccccc1)NC(=O)[C@H](CCC(=O)O)NC(=O)[C@H](CCCNC(=N)N)NC(=O)[C@H](C)NC(=O)[C@H](C)NC(=O)[C@H](CCC(N)=O)NC(=O)[C@H](CCC(=O)O)NC(=O)[C@H](CCC(=O)O)NC(=O)[C@H](CC(C)C)NC(=O)[C@H](Cc1ccc(O)cc1)NC(=O)[C@H](CO)NC(=O)[C@H](CO)NC(=O)[C@@H](NC(=O)[C@H](CC(=O)O)NC(=O)[C@H](CO)NC(=O)[C@@H](NC(=O)[C@H](Cc1ccccc1)NC(=O)[C@@H](NC(=O)CNC(=O)[C@H](CCC(=O)O)NC(=O)[C@H](C)NC(=O)CCc1cnc[nH]1)[C@@H](C)O)[C@@H](C)O)C(C)C)C(=O)N[C@@H](C)C(=O)N[C@@H](Cc1c[nH]c2ccccc12)C(=O)N[C@@H](CC(C)C)C(=O)N[C@H](C(=O)N[C@@H](CCCNC(=N)N)C(=O)NCC(=O)N[C@@H](CCCNC(=N)N)C(=O)N[C@@H](CCCCNC(=O)COCCOCCNC(=O)COCCOCCNC(=O)CC[C@H](NC(=O)CCCCCCCCCCCCCCCCC(=O)O)C(=O)O)C(=O)NCC(=O)NCC(=O)N[C@@H](CO)C(=O)N[C@@H](CCCCNC(=O)[C@H](CCCCNc1c(NCCCCCN(O)C(=O)CCC(=O)NCCCCCN(O)C(=O)CCC(=O)NCCCCCN(O)C(C)=O)c(=O)c1=O)Nc1c(NCCCCCN(O)C(=O)CCC(=O)NCCCCCN(O)C(=O)CCC(=O)NCCCCCN(O)C(C)=O)c(=O)c1=O)C(=O)O)C(C)C` [zirconium-89 labelled] is reported as 0.225 %ID/g (ex vivo gamma counting; male Sprague-Dawley rats, intestine; intravenous, 1 nmol, 24 h).
The DT50 of `COc1ccnc(C(=O)N[C@H]2COC(=O)[C@H](Cc3ccccc3)[C@@H](OC(=O)C(C)C)[C@H](C)OC2=O)c1OCOC(=O)C(C)C` is reported as 1.3 days (aerobic dark soil incubation; soil; geometric mean of 4 soils, persistence endpoint).

Some of these lines once more:
For `O=C1Nc2cc3[nH]nc(-c4ccncc4)c3cc2CN1Cc1ccccc1`, “patients with rash” read 100% (CTCAE v4.03; human, relapsed or refractory advanced solid tumours; intravenous, 1.8 mg/kg, pooled schedules).
`C=CC(=O)Nc1cc(Nc2nccc(Nc3cc(Cl)c(F)cc3C(C)(C)O)n2)c(OC)cc1N1CC[C@@H](N(C)C)C1` — result for “patients with rash”: 50% (human patients; oral, 50 mg, treatment-emergent adverse events).
For `COc1cc2c(Oc3ccc4[nH]c(C)cc4c3F)ccnc2cc1OCC1(N)CC1`, “grade 3 Hypothyroidism” read 0% (paediatric recurrent refractory sarcoma; 8 mg).
`CO[C@H]1C[C@@H]2CC[C@@H](C)[C@@](O)(O2)C(=O)C(=O)N2CCCC[C@H]2C(=O)O[C@H]([C@H](C)C[C@@H]2CC[C@@H](OC(=O)NCCOCCOCCOCCOCCOCCOCCOCCOCCC(=O)N3CCc4cc(Cn5nc(-c6ccc7oc(N)nc7c6)c6c(N)ncnc65)ccc4C3)[C@H](OC)C2)C[C@@H](O)[C@H](C)/C=C(\C)[C@@H](O)[C@@H](OC)C(=O)[C@H](C)C[C@H](C)/C=C/C=C/C=C/1C`: “dose-reducing adverse events” 0% (phase 1 dose escalation, item: gastric haemorrhage; advanced solid tumour patients; intravenous, 8 mg weekly, grade ≥3).
